Results of several laboratories.
Compare with care: the assays were run in different laboratories. Numbers after ± are the reported error.

Structure (SMILES)	test system	conditions	tissue uptake
C=Cc1cc(O)cc2nc(-c3ccc(O)c([76Br])c3)oc12	female C57BL/6 mouse, liver	1 h, high dose, added: estradiol 20 µg blocking	0.51 ± 0.12 %ID/g
CN[C@](C)(C[18F])C(=O)O	SCID mouse MDA-MB-468 xenograft, kidney	60 min post injection	4.8 ± 0.8 %ID/g
N=C(N)NCc1ccc(C(=O)NCCCC[C@H](NC(=O)N[C@@H](CCC(=O)O)C(=O)O)C(=O)O)cc1[211At]	SCID mouse, PC-3 xenografts, liver	14 h	0.6 ± 0.28 %ID/g
COc1cc2ncnc(Oc3cccc(N[11C](=O)Nc4cc(C(C)(C)C(F)(F)F)on4)c3)c2cc1OC	Balb/c nude mouse, female, A375 melanoma xenograft, liver	6.6 MBq, 60 min	25.2 ± 0.57 %ID/g
N=C(N)NCc1ccc(C(=O)NCCCC[C@H](NC(=O)N[C@@H](CCC(=O)O)C(=O)O)C(=O)O)cc1[131I]	SCID mouse, PC-3 xenografts, kidneys	4 h	111 ± 61 %ID/g
COc1cc2ccnc(Cc3ccc(O[11CH3])c(OC)c3)c2cc1OC	Sprague-Dawley rat, brain stem	intravenous, 30 min	0.043 ± 0.004 %ID/g
N=C(N)NCc1ccc(C(=O)NCCCC[C@H](NC(=O)CCCCCCC(=O)NCCCC[C@H](NC(=O)N[C@@H](CCC(=O)O)C(=O)O)C(=O)O)C(=O)O)cc1[131I]	SCID mouse, PC-3 xenografts, bone	1 h	0.33 ± 0.09 %ID/g
O=C(c1ccc(F)cc1)C1CCN(C2Cc3c(cccc3OCC[18F])CC2O)CC1 (single isomer, unassigned; (-))	Sprague-Dawley rat, male, spleen	intravenous, dose not given, 5 min	1.26 ± 0.452 %ID/g
CCNc1cc2[o+]c3cc(NCC)c(C)cc3c(-c3ccccc3C(=O)OCCOCC[18F])c2cc1C	rat, bone	120 min	0.37 ± 0.05 %ID/g
O=C(O)CC[C@H](NC(=O)O[C@@H](CCCCNC(=O)c1ccc([18F])cc1)C(=O)O)C(=O)O	mouse, PC-3 PIP/flu xenografts, liver	60 min	12.5 ± 3.01 %ID/g

Repeated from above:
Structure (SMILES)	test system	conditions	tissue uptake
COc1cc2ccnc(Cc3ccc(O[11CH3])c(OC)c3)c2cc1OC	Sprague-Dawley rat, brain stem	intravenous, 30 min	0.043 ± 0.004 %ID/g
